# Measurements collected from several papers.
# Numbers after ± are the reported error.
Structure (SMILES),cell line,test,conditions,IC50
COc1cc(-c2oc3cc(OC)c(OC)c(O)c3c(=O)c2OC)ccc1O,human Neutrophil,"superoxide release, inhibitor, absorbance",,4.32 µM
Cc1cc(C)c(-n2ccn(-c3c(C)cc(C)cc3C)c2=[Se])c(C)c1.[Cl][Au],LoVo-OXP (oxaliplatin-resistant),MTT,72 h,2.3 ± 0.6 µM
Cc1cc(C)n(C(C(=O)OC(C)C)n2nc(C)cc2C)n1.F[P-](F)(F)(F)(F)F.[Cu+].c1ccc(P(c2ccccc2)c2ccccc2)cc1,U-1285,"cell viability, MTT",,7.3 ± 1.1 µM
CNC(=O)c1cc(Oc2ccc(NC(=O)CCC(=O)OC3OC4OC5(C)CCC6C(C)CCC(C3C)C46OO5)cc2)ccn1 (stereo not drawn),Huh-7,"cell growth or viability, MTT",72 h,12.6 µM
O=C1CC2(C1)C(=O)[O][Pt]1([Cl])([O]C(=O)C(Cl)Cl)([NH][C@@H]3CCCC[C@H]3[NH]1)[O]C2=O,BGC803,"cell growth or viability, MTT",,7.63 µM
N=C(N)NCCC[C@H](NC(=O)[C@@H]1CSSC[C@H](NC(=O)[C@H](Cc2ccc3ccccc3c2)NC(=O)[C@H](CCCNC(=N)N)NC(=O)[C@H](CCCNC(=N)N)NC(=O)c2ccc(F)cc2)C(=O)N[C@@H](Cc2ccc(O)cc2)C(=O)N[C@@H](CCCNC(N)=O)C(=O)N[C@@H](CCCCNC(=O)CN2CCN(CC(=O)O)CCN(CC(=O)O)CCN(CC(=O)O)CC2)C(=O)N[C@H](CCCCNC(=O)CN2CCN(CC(=O)O)CCN(CC(=O)O)CCN(CC(=O)O)CC2)C(=O)N2CCC[C@H]2C(=O)N[C@@H](Cc2ccc(O)cc2)C(=O)N[C@@H](CCCNC(=N)N)C(=O)N[C@@H](CCCNC(N)=O)C(=O)N1)C(N)=O [copper-64 labelled],human red blood cells,"binding, homologous displacement","45 min, room temperature",0.0558 µM
C[C@H]1C(OCCCCCC[P+](c2ccccc2)(c2ccccc2)c2ccccc2)O[C@@H]2O[C@@]3(C)CCC4[C@H](C)CCC1[C@]42OO3 (stereo partly drawn),OVCAR-3,"cell growth or viability, MTT",72 h,0.129 µM
CC(C)C[C@@H](NC(=O)[C@@H](CC(C)C)NC(=O)[C@@H](CO)NC(=O)[C@@H](Cc1c[nH]cn1)NC(=O)[C@@H](CC(C)C)NC(=O)[C@@H](CO)NC(=O)[C@@H](CCCNC(=N)N)NC(=O)[C@@H](CO)NC(=O)[C@H](N)Cc1ccccc1)C(=O)NCC(=O)NCCCCCC(=O)N[C@H](CCCNC(=N)N)C(=O)N[C@H](CCCNC(=N)N)C(=O)N[C@H](CCCNC(=N)N)C(=O)N[C@H](CCCNC(=N)N)C(=O)N[C@H](CCCNC(=N)N)C(=O)N[C@H](CCCNC(=N)N)C(=O)N[C@H](CCCNC(=N)N)C(=O)N[C@H](CCCNC(=N)N)C(=O)NCC(=O)N[C@@H](CS)C(=O)O,KG-1a,"cell viability, MTT","1 h exposure then 23 h, serum-free exposure",2 µM
CC[C@@H](C(=O)[C@@H](C)[C@@H](O)[C@H](C)[C@@H]1O[C@@H]([C@@H](CC)C(=O)O)CC[C@@H]1C)[C@H]1O[C@]2(C=C[C@H](N)[C@]3(CC[C@@](C)([C@H]4CC[C@](O)(CC)[C@H](C)O4)O3)O2)[C@H](C)C[C@@H]1C,HMLER CD24low/CD44high,CellTiter-Blue,72 h,20.5 ± 3.3 µM
CC[C@H](C)[C@H](NC(=O)CNC(=O)[C@H](C)NC(=O)[C@@H]1CCCN1C(=O)CNC(=O)[C@H](C)NC(=O)[C@H](CCC(=O)O)NC(=O)[C@@H]1CCCN1C(=O)[C@H](CC(=O)O)NC(=O)[C@H](C)NC(=O)[C@H](CCC(=O)O)NC(=O)[C@H](C)NC(=O)[C@H](CC(=O)O)NC(=O)[C@H](C)NC(=O)[C@H](CCC(=O)O)NC(=O)[C@H](C)NC(=O)[C@H](CCC(=O)O)NC(=O)[C@@H]1CCCN1C(=O)[C@@H](N)CCC(=O)O)C(=O)NCC(=O)N[C@@H](C)C(=O)N[C@H](C(=O)N[C@@H](CC(C)C)C(=O)N[C@@H](CCCCN)C(=O)N[C@H](C(=O)N[C@@H](CC(C)C)C(=O)N[C@H](C(=O)N[C@H](C(=O)NCC(=O)N[C@@H](CC(C)C)C(=O)N1CCC[C@H]1C(=O)N[C@@H](C)C(=O)N[C@@H](CC(C)C)C(=O)N[C@H](C(=O)N[C@@H](CO)C(=O)N[C@@H](Cc1c[nH]c2ccccc12)C(=O)N[C@H](C(=O)N[C@@H](CCCCN)C(=O)N[C@@H](CCCNC(=N)N)C(=O)N[C@@H](CCCCN)C(=O)N[C@@H](CCCNC(=N)N)C(=O)N[C@@H](CCC(N)=O)C(=O)N[C@@H](CCC(N)=O)C(N)=O)[C@@H](C)CC)[C@@H](C)CC)[C@@H](C)O)[C@@H](C)O)C(C)C)C(C)C,MCF7 vector control (FAP-negative),"cell viability, MTT",72 h,33.1 ± 2.3 µM
O=C(O)c1ccc([S][Au][PH](c2ccccc2)(c2ccccc2)[c-]2cccc2)cc1.[Fe+2].c1cc[cH-]c1,CAKI-1,"cell growth or viability, XTT",72 h,3.6 µM
N=C(N)NCCC[C@H](NC(=O)[C@H](CCCNC(=N)N)NC(=O)[C@@H]1CCCN1C(=O)[C@H](CCCNC(=N)N)NC(=O)[C@H](CCCNC(=N)N)NC(=O)[C@H](CCCNC(=N)N)NC(=O)[C@H](Cc1c[nH]c2ccccc12)NC(=O)[C@H](CCCNC(=N)N)NC(=O)[C@H](CCCNC(=N)N)NC(=O)[C@H](CCCNC(=N)N)NC(=O)[C@H](CCCNC(=N)N)NC(=O)[C@H](CCCNC(=N)N)NC(=O)[C@H](Cc1c[nH]c2ccccc12)NC(=O)[C@H](CCCNC(=N)N)NC(=O)[C@H](CCCNC(=N)N)NC(=O)[C@H](Cc1ccc(O)cc1)NC(=O)[C@H](CCCNC(=N)N)NC(=O)[C@H](CCCNC(=N)N)NC(=O)[C@H](CCCNC(=N)N)NC(=O)[C@@H](N)Cc1c[nH]c2ccccc12)C(N)=O,SK-BR-3,"cell viability, CellTiter-Blue","24 h, serum-free medium",14.1 ± 1 µM
CNC(=O)c1cc(Oc2ccc(NC(=O)c3ccc(-c4cccc(OC(=O)CCC(=O)OC5OC6OC7(C)CCC8C(C)CCC(C5C)C68OO7)c4)cn3)cc2)ccn1 (stereo not drawn),Hep3B,"cell growth or viability, MTT",72 h,4.06 µM
O=C(Cc1ccc2ccccc2c1)N[C@H](Cc1ccccc1)C(=O)N[C@H](Cc1ccccc1)C(=O)N[C@H](Cc1ccc(OP(=O)(O)O)cc1)C(=O)N[C@H](Cc1ccc(OP(=O)(O)O)cc1)C(=O)O,SAOS-2,"cell growth or viability, MTT",,326 µg/mL
CNC(=O)C(NC(=O)c1ccccc1-c1ccc(C(F)(F)F)cc1)c1cccc(C(F)(F)F)c1 (stereo not drawn),KHYG-1 and MICA-expressing Ba/F3,NKG2D-mediated cell killing,6 h,> 20 µM
COc1ccc(C(c2c(C)nn(-c3ccccc3)c2O)c2c(C)nn(-c3ccccc3)c2O)cc1,various human cancer cell lines,"cell growth, MTT",,5.45 to 18.3 µM
CCC(C)C1OC(=O)C(NC(=O)c2cccc(NC=O)c2O)C(C)OC(=O)C(C(C)CC)OC(=O)C(C)(C)C(O)C(Cc2ccccc2)OC1=O (stereo not drawn),SGC-7901/DDP cisplatin-resistant,"cell viability, CCK-8",72 h,0.001 ± 0.0001 µM
[Cl][Ag].[Se]=c1n(C2CCCCC2)ccn1C1CCCCC1,A2780 ADR,MTT,72 h,3.3 ± 0.8 µM
CC(=O)N[C@@H](Cc1c[nH]c2ccccc12)C(=O)N[C@@H](CCC(=O)O)C(=O)N[C@@H](Cc1c[nH]cn1)C(=O)N[C@@H](CC(=O)O)C(=O)COC(=O)c1c(C)cccc1C,EA.hy 926,"cell growth or viability, LDH",26 h,~2.5 µM
CC(C)C[C@@H](NC(=O)CCNc1ccc([N+](=O)[O-])c2nonc12)C(=O)N[C@H](CC(C)C)C(=O)N[C@H](CC(C)C)C(=O)N[C@H](CC(C)C)C(=O)N[C@H](Cc1ccc(OP(=O)(O)O)cc1)C(=O)O,SAOS-2,"cell growth or viability, MTT",24 h,99 µM
Cc1cc(C)c(N2CCN(c3c(C)cc(C)cc3C)C2=[Se])c(C)c1.[Cl][Au],A2780 ADR,MTT,72 h,0.7 ± 0.1 µM
CC[C@@H](C)[C@@H](NC(=O)[C@@H](CCCCN)NC(=O)[C@H](NC(=O)[C@@H](CCC(N)=O)NC(=O)[C@@H](CCCNC(=N)N)NC(=O)[C@@H](CC(C)C)NC(=O)CNC(=O)[C@@H](Cc1ccccc1)NC(=O)CNC(=O)[C@@H](Cc1ccc(O)cc1)NC(=O)CNC(=O)[C@@H](CCCCN)NC(=O)[C@H](NC(=O)[C@@H](Cc1ccccc1)NC(=O)[C@H](NC(=O)[C@@H](CC(=O)O)NC(=O)[C@@H](CCCNC(=N)N)NC(=O)[C@@H](C)NC(=O)[C@@H](CO)NC(=O)[C@@H](CCCCN)NC(=O)CNC(=O)[C@@H](CC(C)C)NC(=O)[C@@H](CC(=O)O)NC(=O)[C@@H](C)NC(=O)[C@@H](Cc1ccc(O)cc1)NC(=O)[C@H](NC(=O)[C@H]1CCCN1C(=O)[C@H]1CCCN1C(=O)[C@H](NC(=O)[C@@H](C)NC(=O)[C@H](N)CCSC)C(C)C)[C@H](C)O)C(C)C)[C@H](C)O)[C@H](C)CC)C(=O)N[C@H](Cc1c[nH]c2ccccc12)C(=O)N[C@H](Cc1ccccc1)C(=O)N[C@H](CCC(N)=O)C(=O)N[C@H](CC(N)=O)C(=O)N[C@H](CCCNC(=N)N)C(=O)N[C@H](CCCNC(=N)N)C(=O)N[C@H](CCSC)C(=O)N[C@H](CCCCN)C(=O)N[C@H](Cc1c[nH]c2ccccc12)C(=O)N[C@H](CCCCN)C(=O)N[C@H](CCCCN)C(=O)O,CLL patient PBMCs,"cell death, PI staining flow cytometry","90 min, room temperature, serum-free medium",1.5 µM
CNC(=O)c1cc(Oc2ccc(NC(=O)c3ccc(-c4cccc(COC(=O)CCC(=O)OC5OC6OC7(C)CCC8C(C)CCC(C5C)C68OO7)c4)cn3)cc2)ccn1 (stereo not drawn),Huh-7,"cell growth or viability, MTT",72 h,2.25 µM
CC(=O)N[C@@H](Cc1c[nH]cn1)C(=O)N[C@@H](CCCNC(=N)N)C(=O)N[C@@H](CCCNC(=N)N)C(=O)N[C@@H](CCCNC(=N)N)C(=O)N[C@@H](CCCNC(=N)N)C(=O)N[C@@H](CCCNC(=N)N)C(=O)N[C@@H](CCCNC(=N)N)C(=O)N[C@@H](CCCNC(=N)N)C(=O)N[C@@H](CCCNC(=N)N)C(=O)N[C@@H](Cc1c[nH]cn1)C(N)=O,VX2,MTT,24 h,12.4 ± 1.18 µM
CC(C)C12OC1C1OC13C1(C)CCC4=C(COC4=O)C1CC1OC13C2OC(=O)CCCOC1OC(CO)C(O)C(O)C1O (stereo not drawn),DLD-1,cell growth,1% oxygen hypoxia,1.3 µM
Cc1cc(Nc2nc(C[C@@]3(C(=O)O)CCN(Cc4cccc(Cl)c4F)[C@H](C)C3)cc(C)c2F)[nH]n1,Calu-6,"cell growth or viability, ATP luminescence",5 days,0.0649 µM
CCc1ccc(C(c2c(C)nn(-c3ccccc3)c2O)c2c(C)nn(-c3ccccc3)c2O)cc1,Ishikawa,"cell growth or viability, MTT",48 h,> 40 µM
C[C@H]1C(OCCCCCCCCCC[P+](c2ccccc2)(c2ccccc2)c2ccccc2)O[C@@H]2O[C@@]3(C)CCC4[C@H](C)CCC1[C@]42OO3 (stereo partly drawn),OVCAR-3,"cell growth or viability, MTT",72 h,0.0907 µM
COc1ccc2sc3c(c2c1)SCCNC3=O,PANC-1,"cell growth or viability, MTT",,28 µM
O=C(O)c1ccc([PH]([Au][Cl])(c2ccccc2)c2ccccc2)cc1,MDA-MB-157,"cell growth or viability, resazurin",72 h,6.7 µM

# Some of these lines once more:
Structure (SMILES),cell line,test,conditions,IC50
O=C(O)c1ccc([PH]([Au][Cl])(c2ccccc2)c2ccccc2)cc1,MDA-MB-157,"cell growth or viability, resazurin",72 h,6.7 µM
CCc1ccc(C(c2c(C)nn(-c3ccccc3)c2O)c2c(C)nn(-c3ccccc3)c2O)cc1,Ishikawa,"cell growth or viability, MTT",48 h,> 40 µM
CC[C@@H](C(=O)[C@@H](C)[C@@H](O)[C@H](C)[C@@H]1O[C@@H]([C@@H](CC)C(=O)O)CC[C@@H]1C)[C@H]1O[C@]2(C=C[C@H](N)[C@]3(CC[C@@](C)([C@H]4CC[C@](O)(CC)[C@H](C)O4)O3)O2)[C@H](C)C[C@@H]1C,HMLER CD24low/CD44high,CellTiter-Blue,72 h,20.5 ± 3.3 µM
CC(=O)N[C@@H](Cc1c[nH]cn1)C(=O)N[C@@H](CCCNC(=N)N)C(=O)N[C@@H](CCCNC(=N)N)C(=O)N[C@@H](CCCNC(=N)N)C(=O)N[C@@H](CCCNC(=N)N)C(=O)N[C@@H](CCCNC(=N)N)C(=O)N[C@@H](CCCNC(=N)N)C(=O)N[C@@H](CCCNC(=N)N)C(=O)N[C@@H](CCCNC(=N)N)C(=O)N[C@@H](Cc1c[nH]cn1)C(N)=O,VX2,MTT,24 h,12.4 ± 1.18 µM
